Experimental data collected from several papers.
Lines come from different studies, so protocols differ. Several values in a cell are separate wells, animals, samples, runs or records. ± marks the error that the study gave.

O=S(=O)(NCc1ccccn1)c1ccc(Cl)c(Cl)c1Cl
logP (octanol/buffer; pH 11, known kinase inactives set): 2.19

Nc1nc(NC2CC2)c2ncn([C@H]3C=C[C@@H](CO)C3)c2n1
drug concentration (Tat+ transgenic mouse, hippocampus; subcutaneous osmotic pump, dose not given, 5 d): 163000 ± 25700 ng/g

CC(=O)N(C)C1CCN(c2cc(F)cc(NC(=O)c3cc4c(F)ccc(C)c4[nH]3)c2)C1 (centres unmarked)
Vz (CD1 mouse; intravenous, 1 mg/kg): 1.5 L/kg

NC1(C(=O)N[C@@H](CCO)c2ccc(Cl)cc2)CCN(c2nc[nH]c3nccc2-3)CC1
dose-normalised AUC(0-last) (human, plasma; oral, 400 mg twice daily, together with: enzalutamide 160 mg daily): 1690 ng·h/mL and 1460 ng·h/mL and 2760 ng·h/mL and 2080 ng·h/mL and 3740 ng·h/mL

O=C(Nc1nc2cccc(-c3ccc(CN4CCS(=O)(=O)CC4)cc3)n2n1)C1CC1
treatment-emergent adverse events (measured: musculoskeletal disorders; human rheumatoid arthritis patients; oral, 200 mg once daily, 4 weeks, regardless of relatedness): 8.3%

O=S(=O)(NCc1ccccn1)c1cc(Cl)c(Cl)cc1Cl
logP (octanol/buffer; pH 11): 2.01

CC1(C)CCC(CN2CCN(c3ccc(C(=O)NS(=O)(=O)c4ccc(NCC5CCOCC5)c([N+](=O)[O-])c4)c(Oc4cnc5[nH]ccc5c4)c3)CC2)=C(c2ccc(Cl)cc2)C1
dose-normalised C6 (C6/D) (UPLC-MS/MS; patients; oral, dose not given, 6 h, together with: triazole antifungals): 0.319 ± 0.196

CNc1ccc(-c2nc3ccc(O)cc3s2)cc1 [carbon-11 labelled]
SUV (ex vivo biodistribution; B6SJL mouse, normal, liver; intravenous, 30 min): 4.08 ± 2.09

Cc1ncnc2c1ccn2[C@@H]1C[C@H](Oc2cc(C(F)F)c(F)c3c2CNCC3)[C@@H](O)[C@H]1O
accumulation ratio (human; oral, 6 mg twice daily; reference: AUC(tau) multiple over single dose): 4.01

C/C(=N\c1ccc(O)cc1)c1cc2ccccc2n1C
remaining compound (rat plasma; 1000 ng/mL, 4 h, room temperature; reference: nominal concentration): 82.8 ± 6.3%

N#Cc1ccc2c(c1)[C@H]1CCCN(C(=O)c3ccc4[nH]cnc4c3)[C@H]1C2
androstenedione level (human, male; 360 mg, day 7): 7.9 nmol/L

CC(=O)c1ccc([C@H]2C[C@@]3(C)[C@@H](CC[C@@]3(O)C(F)(F)C(F)(F)F)[C@@H]3CCC4=CC(=O)CCC4=C32)cc1
serum concentration (human, pooled serum; oral, 200 mg, day 1, 2 h): 24.2 ng/mL

Cc1ccc(Sc2ccccc2N2CCNCC2)c(C)c1
diarrhoea incidence (healthy adult men; oral, 20 mg single dose, treatment-emergent adverse events): 0%

CCN1/C(=C/C(C)=O)Sc2ccc(F)cc21
mean blood pressure (cynomolgus monkey; oral, 10 mg/kg, 2 h post-dose): 88 ± 5 mmHg

CCn1c(=O)c(-c2cc(NC(=O)Nc3ccccc3)c(F)cc2Br)cc2cnc(NC)cc21
participants with drug-related TEAE (measured: gastrointestinal disorders; healthy human, matched to moderate hepatic impairment; oral, 50 mg single dose): 0%

Cc1cc(NC2CCN(C(=O)OC3CCN(C(=O)/C=C/CN(C)C)C3)CC2)n2ncc(C(C)C)c2n1 (centres unmarked)
patients with adverse event (Phase I dose escalation CTCAE v4.0, measured: Hypomagnesemia; patients with advanced solid tumours; dose not given, all dose schedules any grade): 9%

CN(C)CCNS(=O)(=O)c1ccc(N/C=C2\C(=O)Nc3ccccc32)cc1
logP (octanol/buffer; pH 11): 2.67

Cc1cc(C)c(CNC(=O)c2cc(Cl)c3c(c2C)O[C@@](C)([C@H]2CC[C@H](N(C)C)CC2)O3)c(=O)[nH]1
grade ≥3 adverse event Hyperglycemia (relapsed/refractory NHL patients; oral, 200 mg once daily, onset after cycle 1 day 1): 4.2%

C=CC(=O)NC1CCN(c2ncc3ncnc(Nc4ccc(Oc5ccc6c(c5)ncn6C)c(C)c4)c3n2)CC1
dose-normalised Cmax ratio (healthy male volunteers, plasma; oral tablet, 60 mg, dose-normalised Cmax, adjusted geometric mean; reference: oral over intravenous microtracer): 26.1%

O=C(O)CCC(=O)O.[2H]C([2H])([2H])Oc1cc(C)c2[nH]ccc2c1CN1CC[C@@H](C2CC2)C[C@H]1c1ccc(C(=O)O)cc1
subjects with elevated bilirubin TEAE (multiple ascending dose; healthy Chinese subjects; 50 mg twice daily): 0%

Excerpt of the above:
O=S(=O)(NCc1ccccn1)c1ccc(Cl)c(Cl)c1Cl
logP (octanol/buffer; pH 11, known kinase inactives set): 2.19

NC1(C(=O)N[C@@H](CCO)c2ccc(Cl)cc2)CCN(c2nc[nH]c3nccc2-3)CC1
dose-normalised AUC(0-last) (human, plasma; oral, 400 mg twice daily, together with: enzalutamide 160 mg daily): 1690 ng·h/mL and 1460 ng·h/mL and 2760 ng·h/mL and 2080 ng·h/mL and 3740 ng·h/mL
